Measured values gathered from unrelated publications.
Protocols differ between the studies behind these lines. ± gives the spread as reported. Converted amounts (≈) assume the structure as drawn.

The internalized activity of `O=C(O)CC[C@H](NC(=O)N[C@@H](CCCCNC(=O)[C@H](Cc1ccc2ccccc2c1)NC(=O)[C@H]1CC[C@H](CNC(=O)CN2CCN(CC(=O)O)CCN(C(CCC(=O)NCCC[P+](c3ccccc3)(c3ccccc3)c3ccccc3)C(=O)O)CCN(CC(=O)O)CC2)CC1)C(=O)O)C(=O)O` (stereo partly shown) [terbium-161 labelled] is reported as 56.3% (LNCaP (PSMA+); concentration not given; relative to: cell-associated).
With `CC(=O)[O-].F[P-](F)(F)(F)(F)F.[Co+2].c1ccc(CN2CCCN3CCN(CCCN(Cc4ccccc4)CC3)CC2)cc1` the IC50 was > 15 µM (Leishmania donovani; THP-1-derived macrophages, intracellular amastigotes).
The tracer uptake of `CN[C@](C)(C[18F])C(=O)O` is reported as 18 %ID/g (A549 tumour model; host not given, pancreas; 1 h, tumour-bearing).
`Nc1ccc(/C=C/C(=O)N2CCc3c(oc4c(-c5ccc(F)cc5)cc(-c5ccc(C(=O)N6CCC(F)(F)CC6)cn5)cc34)C2)cn1` — result for “tumour growth inhibition”: 57.3% (mice, MIA PaCa-2 xenograft; intraperitoneal, 100 mg/kg once daily, 20 days).
The IC50 of `CC(=O)[O-].F[P-](F)(F)(F)(F)F.[Co+2].c1ccc(CN2CCCNCCN(Cc3ccccc3)CCCNCC2)cc1` is reported as > 15 µM (Leishmania donovani; parasite growth, resazurin; 72 h, promastigote).
Under “inhibition zone diameter”, `CN1CC(=O)N=C1N.C[C@H](CCC(=O)O)[C@H]1CC[C@H]2[C@@H]3CC[C@@H]4C[C@H](O)CC[C@]4(C)[C@H]3C[C@H](O)[C@]12C` is recorded as 11.2 ± 1.1 mm (Enterococcus faecalis; TISTR 927; 1 mg per disc, 18 to 24 h, 37 °C, 6 mm disc).
For `[O-][N+]1=C(c2ccc(Cl)cc2)C2=NCCCCN2c2ccccc21`, the MIC was 2 µg/mL (≈ 6.14 µM) (Bacteroides fragilis; microbial growth; ATCC25285).
For `Fc1ccc2nc3c4cccnc4c4ncccc4c3nc2c1.[Cl-].[Cl-].[Ru+2].c1ccncc1.c1ccncc1.c1ccncc1.c1ccncc1`, the MIC90 was 8 µM (Enterococcus faecalis; VRE ATCC 51299; LED irradiation 470 nm).
`Oc1cc(C(F)(F)F)ccc1-c1nc2c(C(F)(F)F)cc(C(F)(F)F)cc2[nH]1` has a colistin MIC of > 16 µg/mL (Acinetobacter baumannii; colistin potentiator; AB 1G2, colistin-resistant; 5 µM).
For `CCCCc1ccc(-c2nc(C)c(C(C)=NNC(=N)N)s2)cc1`, the MBC was 1.3 µg/mL (≈ 3.95 µM) (Staphylococcus aureus; USA400 MRSA).
`Nc1ccn(C[C@@H](CO)OCP(=O)(O)OCCCS(=O)(=O)CCCCCCCCCCCCC2CCC2)c(=O)n1` has a selectivity index of 241 (human gammaherpesvirus 4; qPCR; Akata; relative to: CC50 over EC50).
For `CCC(=O)N(C)c1ccc(Cl)c(Cl)c1`, the revertants was 0 revertants/plate (Escherichia coli; Ames test; WP2 uvrA; 5.00 mg/plate, with rat liver S9).
The IC90 of `CC#N.[Cl][Mn-2]([Cl])([Cl])[Cl].[Mn+2].c1ccc(CN2CCCN3CCCN(CCCN(Cc4ccccc4)CC3)CC2)cc1` is reported as 2.17 µM (Leishmania donovani; parasite growth; THP-1 macrophages; intracellular amastigotes).
Under “inhibition zone diameter”, `CN1CCNC1=S.CN1CCNC1=S.O=[N+]([O-])[O-].[Ag+].c1ccc(P(c2ccccc2)c2ccccc2)cc1` is recorded as 30 mm (Staphylococcus epidermidis; MTCC 435, DMSO; 0.1 mL of 50 mg/mL in 8 mm well, 18 to 24 h).
`COc1ccc(CNc2nc(N3CCC[C@H]3CO)ncc2C(=O)NN)cc1Cl` has a revertant count of 143 ± 22 (Salmonella typhimurium; TA100; 62.5 µg/plate, 48 h).
`[Cl-].[Cl-].[Ni+2].c1ccc(CN2CCNCCN(Cc3ccccc3)CCNCC2)cc1` has an IC50 of > 20 µM (Leishmania donovani; parasite growth, resazurin; 72 h, amastigote).
The selectivity index of `C=C(C)[C@@H]1CCC=C2CC[C@]3(C)[C@H](CC[C@@H]4[C@@]5(C)CCCNC(C)(C)[C@@H]5CC[C@]43C)[C@H]21` is reported as < 4 (Human papillomavirus 11; viral replication; C-33 A; relative to: CC50 over EC50).
With `COc1ccc(-c2oc3ccc(-c4cc(OC)c(OC)c(OC)c4)cc3c2C#CC(C)(C)O)cc1` the remaining activity was 83.7% (hepatitis C virus; viral entry, HCV pseudoparticle entry; genotype 1a; 10 µM; relative to: DMSO).
Under “subjects with adverse events”, `CC(C)[C@H](NC(=O)CNC(=O)[C@H](CCC(N)=O)NC(=O)[C@H](C)N)C(=O)O` is recorded as 0% (moderate intensity; human; 30 mg/kg, 3 days, thrice daily dosing).

For quick reference, copied from above:
For `[O-][N+]1=C(c2ccc(Cl)cc2)C2=NCCCCN2c2ccccc21`, the MIC was 2 µg/mL (≈ 6.14 µM) (Bacteroides fragilis; microbial growth; ATCC25285).
Under “inhibition zone diameter”, `CN1CC(=O)N=C1N.C[C@H](CCC(=O)O)[C@H]1CC[C@H]2[C@@H]3CC[C@@H]4C[C@H](O)CC[C@]4(C)[C@H]3C[C@H](O)[C@]12C` is recorded as 11.2 ± 1.1 mm (Enterococcus faecalis; TISTR 927; 1 mg per disc, 18 to 24 h, 37 °C, 6 mm disc).
Under “subjects with adverse events”, `CC(C)[C@H](NC(=O)CNC(=O)[C@H](CCC(N)=O)NC(=O)[C@H](C)N)C(=O)O` is recorded as 0% (moderate intensity; human; 30 mg/kg, 3 days, thrice daily dosing).
